Experimental data of several laboratories.
A part holds a random share of what one study measured. Substitutions count along the parent as printed.
Chain of UniProt P11229 (whole entry, looked up): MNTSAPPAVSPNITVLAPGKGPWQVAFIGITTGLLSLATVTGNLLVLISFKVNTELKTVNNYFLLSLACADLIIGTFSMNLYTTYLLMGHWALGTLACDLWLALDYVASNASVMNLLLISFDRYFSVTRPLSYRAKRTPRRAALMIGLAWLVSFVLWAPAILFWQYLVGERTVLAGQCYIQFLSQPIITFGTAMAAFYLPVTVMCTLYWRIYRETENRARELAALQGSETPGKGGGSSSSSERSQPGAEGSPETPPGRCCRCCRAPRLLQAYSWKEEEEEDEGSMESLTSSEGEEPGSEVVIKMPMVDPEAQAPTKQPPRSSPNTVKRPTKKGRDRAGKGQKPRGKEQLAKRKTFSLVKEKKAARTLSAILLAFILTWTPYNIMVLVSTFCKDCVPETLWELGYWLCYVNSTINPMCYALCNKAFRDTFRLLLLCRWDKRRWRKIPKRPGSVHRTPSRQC
Chain of UniProt Q9NSY1 (whole entry, looked up): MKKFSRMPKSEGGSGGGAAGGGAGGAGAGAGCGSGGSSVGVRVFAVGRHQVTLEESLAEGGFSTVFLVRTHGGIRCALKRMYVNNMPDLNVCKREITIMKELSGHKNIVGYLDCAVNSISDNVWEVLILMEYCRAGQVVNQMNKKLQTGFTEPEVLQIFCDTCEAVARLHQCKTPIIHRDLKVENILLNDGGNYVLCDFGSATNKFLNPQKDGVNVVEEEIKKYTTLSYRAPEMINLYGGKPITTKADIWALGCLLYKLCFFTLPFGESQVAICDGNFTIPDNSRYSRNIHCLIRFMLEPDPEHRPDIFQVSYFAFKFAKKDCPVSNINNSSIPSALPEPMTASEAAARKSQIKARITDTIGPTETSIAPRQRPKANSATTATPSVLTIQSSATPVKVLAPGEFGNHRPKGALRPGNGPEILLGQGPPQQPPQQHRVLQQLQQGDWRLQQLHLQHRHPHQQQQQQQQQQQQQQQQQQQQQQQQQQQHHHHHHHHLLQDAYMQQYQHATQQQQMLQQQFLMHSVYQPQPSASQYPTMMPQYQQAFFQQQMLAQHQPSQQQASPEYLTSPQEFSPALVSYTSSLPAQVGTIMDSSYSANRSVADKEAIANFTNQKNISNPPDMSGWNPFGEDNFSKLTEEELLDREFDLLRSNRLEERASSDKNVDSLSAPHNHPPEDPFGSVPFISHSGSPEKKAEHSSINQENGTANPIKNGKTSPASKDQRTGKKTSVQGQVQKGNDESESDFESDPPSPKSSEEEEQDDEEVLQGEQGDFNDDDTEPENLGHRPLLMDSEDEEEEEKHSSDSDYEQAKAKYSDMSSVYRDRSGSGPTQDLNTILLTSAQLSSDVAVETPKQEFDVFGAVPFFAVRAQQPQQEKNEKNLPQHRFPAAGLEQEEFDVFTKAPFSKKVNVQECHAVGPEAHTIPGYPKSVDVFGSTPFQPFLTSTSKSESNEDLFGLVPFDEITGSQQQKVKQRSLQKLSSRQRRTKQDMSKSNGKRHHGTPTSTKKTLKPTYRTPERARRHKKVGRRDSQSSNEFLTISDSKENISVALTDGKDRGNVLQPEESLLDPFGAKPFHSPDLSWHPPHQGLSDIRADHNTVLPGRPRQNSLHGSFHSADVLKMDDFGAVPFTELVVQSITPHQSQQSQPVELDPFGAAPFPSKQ
Chain of UniProt P28335 (whole entry, looked up): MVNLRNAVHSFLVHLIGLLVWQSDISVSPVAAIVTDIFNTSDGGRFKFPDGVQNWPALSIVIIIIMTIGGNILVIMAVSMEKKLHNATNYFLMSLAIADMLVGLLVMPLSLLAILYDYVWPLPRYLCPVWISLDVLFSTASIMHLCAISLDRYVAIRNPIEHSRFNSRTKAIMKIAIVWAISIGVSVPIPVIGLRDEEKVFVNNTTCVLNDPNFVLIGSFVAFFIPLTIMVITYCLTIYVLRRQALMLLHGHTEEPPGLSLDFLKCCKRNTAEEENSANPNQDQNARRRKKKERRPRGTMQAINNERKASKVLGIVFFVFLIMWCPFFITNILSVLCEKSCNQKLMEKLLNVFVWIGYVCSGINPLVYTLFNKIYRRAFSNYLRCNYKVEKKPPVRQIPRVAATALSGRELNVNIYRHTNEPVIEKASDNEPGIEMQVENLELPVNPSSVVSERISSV
Chain of UniProt P61075 (whole entry, looked up): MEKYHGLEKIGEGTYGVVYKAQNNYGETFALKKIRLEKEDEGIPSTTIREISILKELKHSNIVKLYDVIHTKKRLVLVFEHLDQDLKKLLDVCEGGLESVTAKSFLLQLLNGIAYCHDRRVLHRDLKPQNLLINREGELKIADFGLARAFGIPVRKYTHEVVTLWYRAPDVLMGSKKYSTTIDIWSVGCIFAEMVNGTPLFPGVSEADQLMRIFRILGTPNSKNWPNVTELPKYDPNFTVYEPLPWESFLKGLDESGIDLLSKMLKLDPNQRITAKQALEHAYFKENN
Chain of UniProt P08588 (whole entry, looked up): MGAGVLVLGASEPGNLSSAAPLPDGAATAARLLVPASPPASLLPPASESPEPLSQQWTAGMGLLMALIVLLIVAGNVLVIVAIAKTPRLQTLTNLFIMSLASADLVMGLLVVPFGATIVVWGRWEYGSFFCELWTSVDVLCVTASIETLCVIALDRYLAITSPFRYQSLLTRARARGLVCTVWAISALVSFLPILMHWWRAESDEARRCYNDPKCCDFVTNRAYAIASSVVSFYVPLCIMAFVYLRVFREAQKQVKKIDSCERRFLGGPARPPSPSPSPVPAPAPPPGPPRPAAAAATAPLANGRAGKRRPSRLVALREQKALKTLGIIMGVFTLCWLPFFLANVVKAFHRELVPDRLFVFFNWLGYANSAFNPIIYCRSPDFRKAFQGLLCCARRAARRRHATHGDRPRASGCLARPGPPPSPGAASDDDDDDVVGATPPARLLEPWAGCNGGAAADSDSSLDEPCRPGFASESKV

Study 1
Target: HLA class I histocompatibility antigen, A alpha chain, allele A*80:01 (Homo sapiens, UniProt P04439)
Observed: peptide-MHC binding
Form: peptide
Direction: direction not given
Sequence | z-score of log IC50
FKYDSTKPL | 0.38
GIALAVPCV | 0.38
GFPFFIMPK | 0.38
GMHDGTVGK | 0.38
FLILPQAKK | 0.38
FTRYRKEAI | 0.38
FTIGNMFSL | 0.38
FTGEYLLRL | 0.38

Study 2
Target: CCNF, cyclin fold, Cln2 fusion (human)
Method: yeast growth competition, sequencing
Matrix: yeast
Notes: strong parent motif
Baseline: not given
Direction: higher = stronger binding
Starting sequence: viral docking peptide; YKVKRRLVFGADD
Substitution | normalised enrichment score
G10N | 8.62
R6T | 8.04
R5H | 3.49
G10C | 8.79
R5C | 5.59
K2F | 9.01
R5M | 4.35
K2E | 8.16

Further values, each from its own experiment
SMILES | target or system | test | conditions | how to read | measurement | value
Cc1nc(N2CC[C@@H](O)C2)ncc1-c1cc(C(F)(F)F)cc2[nH]ncc12 | CRK2 (Plasmodium falciparum, UniProt P61075) | cell-free assay, competition with immobilised ligand | 1 µM | – | remaining binding | 61%
CCCN(CCC)[C@H]1CCc2c(O)cccc2C1 | ADRB1 (Homo sapiens, UniProt P08588) | antagonist | – | – | IC50 | ≥ 100 µM
CCS(=O)(=O)c1cc2cc(C[C@@](O)(CC(C)(C)c3ccc(F)cc3C(N)=O)C(F)(F)F)[nH]c2cn1 | CHRM1 (Homo sapiens, UniProt P11229) | binding, radioligand binding | 10 µM | – | inhibition | -19.7%
CC(C)CC(N(C)C)C1(c2ccc(Cl)cc2)CCC1.Cl (stereo not shown) | Sarcocystis neurona | parasite growth | 10 µM, second screen | baseline: untreated | log2 fold change | 0.51
O=C(NCc1ncc(C(F)(F)F)cc1Cl)c1ccc2c(c1)C1(CCS(=O)(=O)CC1)[C@H](C1CC1)N2S(=O)(=O)c1ccc(F)cc1 | BMP2K (Homo sapiens, UniProt Q9NSY1) | cell-free assay, competition with immobilised ligand | 1 µM | – | remaining binding | 96%
COc1nc2ccc([C@@](O)(c3ccccc3)C3CCN(C(C)=O)CC3)cc2c(Cl)c1Cc1ccc(-n2cccn2)cc1 | HTR2C (Homo sapiens, UniProt P28335) | binding, radioligand binding | 10 µM | – | inhibition | 21.2%

A few entries again (study 1):
Sequence | z-score of log IC50
FLILPQAKK | 0.38
GFPFFIMPK | 0.38
